Measurements pooled from the literature.
Lines come from different studies, so protocols differ. ± marks the error that the study gave.

The tissue uptake of `CC(C)[C@H](NC(=O)[C@@H]1CCCN1C(=O)[C@H](CCCNC(=N)N)NC(=O)[C@H](CS)NC(=O)[C@H](Cc1c[nH]c2ccccc12)NC(=O)[C@H](CCCNC(=N)N)NC(=O)[C@@H](Cc1ccccc1)NC(=O)[C@H](Cc1c[nH]cn1)NC(=O)[C@H](CCC(=O)O)NC(=O)[C@H](CS)NC(=O)[C@H](CS)NC(=O)[C@@H]1CC(=O)N[C@@H](CCCNC(=N)N)C(=O)NCC(=O)N[C@@H](CC(=O)O)C(=O)N[C@H](Cc2ccc(O)cc2)C(=O)N1)C(N)=O` [technetium-99m labelled] is reported as 2.24 ± 0.55 %ID/g (C57 mice B16/F1 melanoma female, stomach; iv, 2 h, with: NDP-MSH 10 µg co-injected).
With `O=C(NCC1OC2CCC=CCCC2O1)c1ccc(COCCOCCOCC[18F])cc1` (stereo not drawn) the tissue uptake was 3.9 ± 0.9 %ID/g (female BALB/c nude mice, liver; intravenous, 60 min).
`CCCC[C@H](NC(=O)CNC(=O)CNC(=O)CN1CCN(CC(=O)O)CCN(CC(=O)O)CCN(CC(=O)O)CC1)C(=O)N[C@H]1CC(=O)NCCCC[C@@H](C(N)=O)NC(=O)[C@H](Cc2c[nH]c3ccccc23)NC(=O)[C@H](CCCNC(=N)N)NC(=O)[C@@H](Cc2ccccc2)NC(=O)[C@H](Cc2c[nH]cn2)NC1=O` [gallium-67 labelled] gave a tissue uptake of 1.52 ± 1.14 %ID (C57 mice, female, B16/F1 melanoma, intestines; intravenous, 0.037 MBq, 2 h).
The tissue uptake of `CCCC[C@@H]1NC(=O)[C@@H](NC(=O)[C@H](CCC(=O)O)NC(=O)CNC(=O)CN2CCN(CC(=O)O)CCN(CC(=O)O)CCN(CC(=O)O)CC2)CCCCNC(=O)C[C@@H](C(N)=O)NC(=O)[C@H](C(C)C)NC(=O)[C@@H]2CCCN2C(=O)[C@H](CCCNC(=N)N)NC(=O)CNC(=O)[C@H](Cc2c[nH]c3ccccc23)NC(=O)[C@H](CCCNC(=N)N)NC(=O)[C@@H](Cc2ccccc2)NC(=O)[C@H](Cc2c[nH]cn2)NC(=O)[C@H](CCC(=O)O)NC1=O` [gallium-67 labelled] is reported as 22.6 ± 4.03 %ID/g (C57 mice with B16/F1 melanoma, kidneys; intravenous, 0.037 MBq, 4 h).
With `O=C([O-])CN1CCN(CC(=O)[O-])CCN(CC(=O)[O-])CCN(CC(=O)[O-])CC1.[64Cu+2]` the tissue uptake was 0.9 %ID/g (healthy athymic nude mice, spleen; intravenous, 15 min).
For `CN1C(=O)[C@@H](Cc2ccc(O)c(I)c2)NC(=O)CNC(=O)[C@H](Cc2ccc3ccccc3c2)NC(=O)[C@H](CCCNC(=N)N)NC(=O)[C@H]1CCCNC(=O)c1ccc(CNC(=O)CN2CCN(CC(=O)O)CCN(CC(=O)O)CCN(CC(=O)O)CC2)cc1` [lutetium-177 labelled], the tissue uptake was 0.17 ± 0.01 %ID/g (measured: 177Lu radioactivity; female CB-17 SCID mice, Daudi xenograft, lung; intravenous, 0.16 nmol per mouse, 96 h).
`CCCC[C@H](NC(=O)CNC(=O)CNC(=O)CN1CCN(CC(=O)O)CCN(CC(=O)O)CC1)C(=O)N[C@H]1CC(=O)NCCCC[C@@H](C(N)=O)NC(=O)[C@H](Cc2c[nH]c3ccccc23)NC(=O)[C@H](CCCNC(=N)N)NC(=O)[C@@H](Cc2ccccc2)NC(=O)[C@H](Cc2c[nH]cn2)NC1=O` [gallium-67 labelled] gave a tissue uptake of 0.36 ± 0.04 %ID/g (female C57 mice, B16/F1 melanoma, pancreas; intravenous, 0.037 MBq, 4 h).
For `N=C(N)NCCC[C@@H]1NC(=O)[C@H](CCCCNC(=O)CON=C[C@H](F)[C@@H](O)[C@H](O)[C@H](O)CO)NC(=O)[C@@H](Cc2ccc(O)cc2)NC(=O)[C@H](CC(=O)O)NC(=O)CNC1=O` [fluorine-18 labelled], the tissue uptake was 0.6 ± 0.66 %ID/g (nude mice U-87 MG tumour, lung; intravenous, 2 h).
`O=C([O-])CN1CCN(CC(=O)[O-])CCN(CC(=O)NCCc2ccc3c(c2)C2C=CCC2C(c2cc4c(cc2Br)OCO4)N3)CCN(CC(=O)[O-])CC1.[111In+3]` (stereo not drawn) gave a tissue uptake of 0.11 ± 0.06 %ID/g (mice with Hec50 tumour xenograft, brain; 2 h, with: G-1 5 µg blocking).
The tissue uptake of `O=C([O-])c1cccc(CN(CCN(Cc2cn(Cc3ccccc3)nn2)Cc2cccc(C(=O)[O-])n2)Cc2cn(Cc3ccccc3)nn2)n1.[64Cu+2]` is reported as 4.3 %ID/g (healthy athymic nude mice, lung; intravenous, 24 h).
`N=C(N)NCCC[C@H](NC(=O)CON=C[C@H](F)[C@@H](O)[C@H](O)[C@H](O)CO)C(=O)NCC(=O)N[C@@H](CC(=O)O)C(=O)O` [fluorine-18 labelled] gave a tissue uptake of 0.78 ± 0.05 %ID/g (nude mice U-87 MG tumour, lung; intravenous, 0.5 h).
For `CCCC[C@H](NC(=O)CN1CCC(NC(=O)CN2CCN(CC(=O)O)CCN(CC(=O)O)CCN(CC(=O)O)CC2)CC1)C(=O)N[C@H]1CC(=O)NCCCC[C@@H](C(N)=O)NC(=O)[C@H](Cc2c[nH]c3ccccc23)NC(=O)[C@H](CCCNC(=N)N)NC(=O)[C@@H](Cc2ccccc2)NC(=O)[C@H](Cc2c[nH]cn2)NC1=O` [gallium-68 labelled], the tissue uptake was 0.6 ± 0.2 %ID/g (C57BL/6J mice male B16-F10 tumour, liver; 1 h post injection, unblocked).
